Experimental data of several laboratories.
Compare with care: the assays were run in different laboratories. Several values in a cell are separate wells, animals, samples, runs or records. Numbers after ± are the reported error.
Slc6a4: Sodium-dependent serotonin transporter (Slc6a4, Rattus norvegicus, UniProt P31652)
kasA: 3-oxoacyl-[acyl-carrier-protein] synthase 1 (kasA, Mycobacterium tuberculosis, UniProt P9WQD9)
SLC6A3: Sodium-dependent dopamine transporter (SLC6A3, Homo sapiens, UniProt Q01959)
4'-phosphopantetheinyl transferase PptT: 4'-phosphopantetheinyl transferase PptT (Mycobacterium tuberculosis, UniProt O33336)
cydA with subunit CydB: cydA, with subunit CydB (Mycobacterium tuberculosis, UniProt L7N662)
Sodium channel protein type 4 alpha BTX-activated: Sodium channel protein type 4 alpha, BTX-activated (Oryctolagus cuniculus, UniProt G1SLL9)

`CC(NC(C)(C)C)C(=O)c1ccccc1` (stereo not drawn) — result for activity: “inactive” (Slc6a4; binding; rat; dose not given).
The ΔTm of `CCc1nc2ccc(Cl)cn2c1C(=O)NC1CCC(=O)NC1C1CCCO1` (stereo not drawn) is reported as -0.09 °C (kasA; thermal stabilization, nanoDSF; 100 µM).
`CN1CC[C@@]2(C)c3cc(OC(=O)Nc4ccccc4)ccc3N(C)[C@@H]12` has an inhibition of 0.1% (human nicotinic α4β2 receptor; radioligand binding; 10 µM, with: [3H]epibatidine).
`Oc1cccc([C@]23CCC[C@H]([C@H]2O)N(CC=Cc2ccccc2)CC3)c1` gave a selectivity ratio of 133 (Mu-type opioid receptor (Oprm1, Rattus norvegicus, UniProt P33535); agonist; C6 cells; reference: delta over mu opioid receptor).
`CC(NC(C)(C)C)C(=O)c1cccc(Cl)c1` (stereo not drawn) gave an inhibition of 16% (Voltage-dependent P/Q-type calcium channel subunit alpha-1A (Homo sapiens, UniProt O00555); ion current, antagonist; HEK293; 3 µM).
`Cc1ccc(C(=O)O)cc1S(=O)(=O)Nc1ccc2cnn(C(C)C)c2c1` gave a ΔTm of -0.23 °C (kasA; thermal stabilization, nanoDSF; 100 µM).
`CCCC(C(=O)c1ccc2c(c1)OCO2)N1CCCC1` (stereo not drawn): “maximal inhibition rate (kapp)” 1.99 s⁻¹ (SLC6A3; transporter current, inhibitor; with: dopamine 30 µM).
`O=c1c2cc(Cl)ccc2[nH]c(=S)n1Cc1cccnc1` has an activity loss of 76% (4'-phosphopantetheinyl transferase PptT; enzyme activity, inhibitor; 100 µM, 2 h, room temperature, before dialysis, 10 µM enzyme).
`C/C1=C2/[N-]C([C@H](CC(N)=O)[C@@]2(C)CCC(=O)NC[C@@H](C)OP(=O)([O-])O[C@H]2[C@@H](O)[C@@H](n3cnc4cc(C)c(C)cc43)O[C@@H]2CO)[C@]2(C)N=C(/C(C)=C3N=C(/C=C4N=C1[C@@H](CCC(N)=O)C\4(C)C)[C@@H](CCC(N)=O)[C@]\3(C)CC(N)=O)[C@@H](CCC(N)=O)[C@]2(C)CC(N)=O.[CH2-][C@H]1O[C@@H](n2cnc3c(N)ncnc32)[C@@H](O)[C@@H]1O.[Co+3]` has a specific activity of 35.4 ± 0.5 µmol/min/mg (Probable methylmalonyl-CoA mutase large subunit (mutB, Mycobacterium tuberculosis, UniProt P9WJK5); cofactor).
For `NCCc1ccc(Oc2ccc(O)cc2)c(I)c1`, the reporter activity was 760% (Trace amine-associated receptor 1, with DAT (Macaca mulatta, UniProt Q8HZ64); CRE-luciferase reporter, agonist; TAAR1-DAT co-expressing cells; 10 µM, 18 h; reference: vehicle).
With `Cc1[nH]c2ccccc2c(=O)c1-c1ccc(Oc2ccc(OC(F)(F)F)cc2)cc1` the specific activity was 4.1 ± 0.2 µmol/min/mg (cydA with subunit CydB; inhibitor; 110 nM).
With `COc1cc(N)c(Cl)cc1C(=O)NC1CCN(CCCOc2ccc(F)cc2)CC1OC` (stereo not drawn) the ΔTm was -0.2 °C (kasA; thermal stabilization, nanoDSF; 100 µM).
For `COc1c(O)c(C)c(CC=C(C)C)c(O)c1OC`, the specific activity was 5.3 ± 0.5 µmol/min/mg (cydA with subunit CydB; biochemical).
`CCC[C@@H](C(=O)c1ccc(C)cc1)N1CCCC1` has a koff of 0.032 s⁻¹ (SLC6A3; DAT-mediated current recovery, electrophysiology; human DAT-expressing cells; with: 30 µM dopamine).
With `Nc1nc2c(ncn2[C@@H]2O[C@H](COP(=O)(O)OP(=O)(O)O)[C@@H](O)[C@H]2O)c(=O)[nH]1` the binding stoichiometry was about 1 (uncharacterized protein (Vibrio cholerae, UniProt A0A0X1KYD0); nucleotide binding, isothermal titration calorimetry; concentration not given, with Mg2+).
`COc1c(O)c(C)c(C/C=C(\C)CCC=C(C)C)c(O)c1OC` has a Km of 65.2 ± 15.3 µM (cydA with subunit CydB; enzyme activity, biochemical).
`CN[C@@H](C)[C@H](O)c1ccccc1`: enzyme activity “inactive” (4'-phosphopantetheinyl transferase PptT; inhibitor; concentration not given).
`C=CCN1CC[C@]23c4c5ccc(O)c4O[C@H]2C(=O)CC[C@]3(O)[C@H]1C5` gave an inhibition of 1.9% (Leukotriene B4 receptor 1 (LTB4R, Homo sapiens, UniProt Q15722); concentration not given).
`CCCC(C(=O)c1ccc2c(c1)OCO2)N1CCCC1` (stereo not drawn) gave a remaining current of 32.9 ± 1.9% (SLC6A3; endogenous leak current, inhibitor, two-electrode voltage clamp; Xenopus oocytes expressing hDAT; 0.01 to 30 µM, -60 mV; reference: dopamine pre-pulse peak current).
For `NCCc1ccccc1`, the reporter activity was 531% (Trace amine-associated receptor 1 (Macaca mulatta, UniProt Q8HZ64); CRE-luciferase reporter, agonist; TAAR1-expressing cells; 10 µM, 18 h; reference: vehicle).
For `CCc1nc2ccc(Cl)cn2c1C(=O)NCC(O)c1cccc(C(F)(F)F)c1` (stereo not drawn), the ΔTm was 0.02 °C (kasA; thermal stabilization, nanoDSF; 100 µM).
With `c1ccc2cc([C@]34CNC[C@H]3C4)ccc2c1` the dopamine uptake was 78.4% and 106% and 103% (Sodium-dependent dopamine transporter (SLC6A3, Homo sapiens, UniProt Q01959, F326A); inhibitor, [3H]dopamine uptake; 100 pM, F326A mutant; reference: no inhibitor).
`Oc1ccc2c3c1O[C@H]1c4oc5ccccc5c4C[C@@]4(O)[C@@H](C2)N(CC2CC2)CC[C@]314` gave a Hill coefficient of 1.07 ± 0.08 (Transient receptor potential cation channel subfamily M member 7 (Trpm7, Mus musculus, UniProt Q923J1, F924W); Ca2+ influx, activator, aequorin; HEK-293T).
`Oc1ccc2c3c1O[C@H]1[C@@H](O)CC[C@@]4(O)[C@@H](C2)N(CC2CCC2)CC[C@]314` — result for “log2 fold change”: 0.124 (G-protein coupled receptor 35 (GPR35, Homo sapiens, UniProt Q9HC97); β-arrestin recruitment, TANGO luminescence; concentration not given; reference: basal luminescence).
`CCN(CC)C12C3CCC4C3C3C(CCC31)C42` gave an inhibition of 0% (Matrix protein 2 (Influenza A virus, UniProt P0DOF5); 100 µM, pH 5.5, cell-based).
`CCCCCCCC[C@H]1O[C@H]1C/C=C/C=C/[C@H](O)CC(=O)NC1=C[C@](C)(CC)OC1=O` gave a ΔH of -25 ± 0.98 kcal/mol (Na(+)-translocating NADH-quinone reductase subunit B, whole Na+-NQR complex (nqrB, Vibrio cholerae serotype O1, UniProt Q9KPS2); isothermal titration calorimetry; 20 °C, 50 µM).
`COC(=O)C1C(OC(=O)c2ccccc2)CC2CCC1N2C` (single isomer, unassigned; (-)) has an apparent off-rate of about 60 s⁻¹ (Sodium channel protein type 4 alpha BTX-activated; rabbit).
With `CCCCCCCCCCc1c(C)c(O)c(OC)c(OC)c1O` the Km was 21.5 µM and 19.3 µM (cydA with subunit CydB; enzyme activity, biochemical).
For `CCc1nc2ccc(Cl)cn2c1C(=O)NC1CC12CCOCC2` (stereo not drawn), the ΔTm was -0.13 °C (kasA; thermal stabilization, nanoDSF; 100 µM).
With `CCCc1cc(O)c2c(c1)OC(C)(C)[C@@H]1CCC(C)=C[C@@H]21` the Hill coefficient was 1.83 ± 0.58 (Transient receptor potential cation channel subfamily V member 3 (TRPV3, Homo sapiens, UniProt Q8NET8, R693F); calcium uptake, agonist; HEK293S; mutant R693F, site 3).
For `Cl.O=C(O)CCNC1CCN(c2ccc(OC(F)(F)F)cc2)CC1`, the ΔTm was -0.21 °C (kasA; thermal stabilization, nanoDSF; 100 µM).
For `COC(=O)[C@H]1[C@@H](OC(=O)c2ccccc2)C[C@@H]2CC[C@H]1N2C`, “mean closed time” read 515 ms and 492 ms (Sodium channel protein type 4 alpha BTX-activated; concentration not given).
For `CCn1ncc2ccc(NS(=O)(=O)c3ccc(C)c(C(=O)O)c3)cc21`, the ΔTm was -0.32 °C (kasA; thermal stabilization, nanoDSF; 100 µM).
`Clc1cc(Cl)cc(N2CCNCC2)c1` has an Emax of under 10% (Muscarinic acetylcholine receptor M1 (CHRM1, Homo sapiens, UniProt P11229); ERK1/2 phosphorylation, agonist; CHO cells).
`CCc1nc2ccc(Cl)cn2c1C(=O)Nc1cc(CO)c(C)cc1C` has a ΔTm of -0.18 °C (kasA; thermal stabilization, nanoDSF; 100 µM).
For `CCC(C(=O)c1ccc2c(c1)OCO2)N(C)C` (stereo not drawn), EC50 read “inactive” (Slc6a4; serotonin release; rat brain synaptosomes; with: [3H]5-HT 5 nM).
